Measurements of several laboratories.
Compare with care: the assays were run in different laboratories. “And” joins repeats or separate records; there may be more than shown. ± marks the error that the study gave.

SMILES | cell line | test | conditions | scale | quantity | result
O=C(Nc1cnc2ccccc2c1)c1cc2[nH]ccc2cc1Cl | COS-7 | – | 10 µM, 24 h, 0.1% DMSO, unit not given | reference: vehicle control | apoptotic cells | 1.44 ± 1.12
O=C(O)c1cc(O)c2c(c1)C(=O)c1cccc(O[C@@H]3O[C@H](CO)[C@@H](O)[C@H](O)[C@H]3O)c1C2=O | HepaRG co-cultured with HK-2 | MTT | 133.33 µM, 24 h | reference: untreated control | cell viability | 94.4 ± 6.73%
CC(=O)Nc1cccc(-n2c(=O)n(C3CC3)c(=O)c3c(Nc4ccc(I)cc4F)n(C)c(=O)c(C)c32)c1 | COLO 205 (BRAF V600E) | – | 100.00 nM | reference: DMSO | fractional effect | 92%
CCCCN1C[C@H](O)[C@@H](O)[C@@H](O)[C@H]1CO | sample B patient fibroblasts | Gb3 level lowering, LC-MS/MS, refers to: Gb3 d18:1/24:1 | 216 h | – | IC50 | 11.7 µM
Cc1cccc(-c2[nH]c(CNc3ccccc3F)nc2-c2ccc3ncnn3c2)n1 | pomalidomide-resistant MM1.S cells | XTT | 1.25 µM | higher = more viable cells | XTT absorbance | 3.4 E-1 and 2.8 E-1 and 2.7 E-1
CCCOc1ccn2c(C(C)=O)cc(-c3ccccc3S(C)(=O)=O)c2c1 | OCI-Ly1 | – | 1 µM, 120 h | – | viability | 66.8%
Cn1cc(-c2ccc(-c3cncc(Cl)c3N3CCC4(CCNC4=O)CC3)cc2)cn1 | COLO 205 | gene expression, microarray, refers to: P4HA2 mRNA | concentration not given, 2 h | reference: untreated cells | log2 fold change | 1.76
CC(NC(=O)c1ccccc1/N=C/c1c(O)ccc2ccccc12)c1ccccc1 (centres unmarked) | OCI-Ly1 | – | 1 µM, 120 h | – | viability | 103%
O=C(/C=C/C=C/C=C/C1CCCCC1)NC1=C[C@@](O)(/C=C/C=C/C=C/C(=O)NC2=C(O)CCC2=O)[C@@H]2O[C@@H]2C1=O | SK-MEL-30 | cell growth, CellTiter-Glo | 78 h | – | GI50 | 14.3 µM
COc1cc2ncnc(Nc3ccc(Oc4ccccc4)cc3C)c2cc1OC | COLO 205 (BRAF V600E) | resazurin | 3 µM, 72 h, with: trametinib 0 nM | – | viability | 60.3%
COc1cnc2cccc(N3CCc4c(cc(Cn5ccnc5C)cc4-c4cn(C)nc4C(F)(F)F)C3=O)c2c1 | SW900 | cell growth, inhibitor | 120 h | – | EC50 | 0.0583 µM
CCCCCCCCCc1ccc(OCCOCCOCCOCCOCCOCCOCCOCCOCCO)cc1 | iPSC-derived cardiomyocytes | concentration-response fit | – | reference: vehicle | fitted bottom MyBP-C/MYH ratio | 0%
CCN(CCO)CCCC(C)Nc1ccnc2cc(Cl)ccc12 (centres unmarked) | hiPSC-derived ventricular cardiomyocytes | perforated patch voltage clamp | 10 µM, 3-5 min, unit not given | reference: pre-drug control | steady funny current | 0.9 and 1.41 and 1.16 and 0.97
O=C(NCc1ccccc1)c1c(/N=C/c2c(O)ccc3ccccc23)sc2c1CCCC2 | OCI-Ly1 | – | 0.5 µM, 120 h | – | viability | 65.2%
CCn1cc(-c2cc(Cn3ccoc3=N)cc3c2CCN([C@@H](C)c2cc(OC)ccn2)C3=O)c(C(F)(F)F)n1 | TE-11 | cell growth, inhibitor | 120 h | – | EC50 | 0.0343 µM
Nc1ncnc2c1ncn2[C@@H]1C=C(CO)[C@@H](O)[C@H]1O | OCI-Ly1 | – | 1 µM, 120 h | – | viability | 3.1%
COc1cc2c(c(O)c1OC)C(=O)c1c(cc(C)c(O)c1OC)C2=O | HepaRG co-cultured with HK-2 | MTT | 66.67 µM, 24 h | reference: untreated control | cell viability | 65.6 ± 8.2%
Oc1cc(O)c2cc(O)c(-c3cc(O)c(O)c(O)c3)[o+]c2c1 | OCI-Ly1 | – | 1 µM, 120 h | – | viability | 165%
CCn1cc(-c2cc(Cn3ccnc3)cc3c2CCN([C@H](c2cc(OC)ccn2)C2CC2)C3=O)c(C(F)(F)F)n1 | SW900 | cell growth, inhibitor | 120 h | – | EC50 | 8.73 µM
CC(C)n1c(/C=C/C(O)CC(O)CC(=O)O)c(-c2ccc(F)cc2)c2ccccc21 (centres unmarked) | COS-7 | – | 6 µM, 24 h, 0.1% DMSO, unit not given | reference: vehicle control | confluence | 0.83 ± 0.03
